Measurements pooled from the literature.
Numbered parts are unrelated; each lists some results of a single study.
UniProt Q9BRS2, sequence (whole entry, looked up): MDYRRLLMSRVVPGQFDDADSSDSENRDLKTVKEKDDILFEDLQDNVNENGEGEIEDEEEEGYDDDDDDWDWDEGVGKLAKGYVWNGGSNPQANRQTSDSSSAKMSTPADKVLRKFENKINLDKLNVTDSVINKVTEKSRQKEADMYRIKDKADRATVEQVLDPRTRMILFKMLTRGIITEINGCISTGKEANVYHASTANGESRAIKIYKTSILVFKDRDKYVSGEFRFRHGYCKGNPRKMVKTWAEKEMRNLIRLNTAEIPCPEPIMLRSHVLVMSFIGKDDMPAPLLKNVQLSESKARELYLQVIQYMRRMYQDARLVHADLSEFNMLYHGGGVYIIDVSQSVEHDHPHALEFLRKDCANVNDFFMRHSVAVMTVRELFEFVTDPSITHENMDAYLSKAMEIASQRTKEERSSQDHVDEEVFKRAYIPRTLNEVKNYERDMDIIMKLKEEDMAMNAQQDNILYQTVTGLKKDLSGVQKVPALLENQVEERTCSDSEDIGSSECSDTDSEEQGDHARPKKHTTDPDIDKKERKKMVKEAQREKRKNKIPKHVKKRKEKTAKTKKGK
UniProt Q9Y6M4, sequence (whole entry, looked up): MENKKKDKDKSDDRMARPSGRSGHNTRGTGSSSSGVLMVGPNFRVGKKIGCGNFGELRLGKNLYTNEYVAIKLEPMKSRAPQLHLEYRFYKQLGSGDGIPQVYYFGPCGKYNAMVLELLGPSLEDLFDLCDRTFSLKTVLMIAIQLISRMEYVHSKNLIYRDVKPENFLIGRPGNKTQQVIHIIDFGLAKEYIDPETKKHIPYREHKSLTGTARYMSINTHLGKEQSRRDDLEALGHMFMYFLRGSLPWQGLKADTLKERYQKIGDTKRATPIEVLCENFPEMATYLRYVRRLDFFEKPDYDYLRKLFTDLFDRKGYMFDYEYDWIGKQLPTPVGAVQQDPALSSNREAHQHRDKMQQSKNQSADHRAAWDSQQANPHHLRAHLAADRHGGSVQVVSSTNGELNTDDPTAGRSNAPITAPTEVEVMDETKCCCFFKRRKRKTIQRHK
UniProt Q12852, sequence (whole entry, looked up): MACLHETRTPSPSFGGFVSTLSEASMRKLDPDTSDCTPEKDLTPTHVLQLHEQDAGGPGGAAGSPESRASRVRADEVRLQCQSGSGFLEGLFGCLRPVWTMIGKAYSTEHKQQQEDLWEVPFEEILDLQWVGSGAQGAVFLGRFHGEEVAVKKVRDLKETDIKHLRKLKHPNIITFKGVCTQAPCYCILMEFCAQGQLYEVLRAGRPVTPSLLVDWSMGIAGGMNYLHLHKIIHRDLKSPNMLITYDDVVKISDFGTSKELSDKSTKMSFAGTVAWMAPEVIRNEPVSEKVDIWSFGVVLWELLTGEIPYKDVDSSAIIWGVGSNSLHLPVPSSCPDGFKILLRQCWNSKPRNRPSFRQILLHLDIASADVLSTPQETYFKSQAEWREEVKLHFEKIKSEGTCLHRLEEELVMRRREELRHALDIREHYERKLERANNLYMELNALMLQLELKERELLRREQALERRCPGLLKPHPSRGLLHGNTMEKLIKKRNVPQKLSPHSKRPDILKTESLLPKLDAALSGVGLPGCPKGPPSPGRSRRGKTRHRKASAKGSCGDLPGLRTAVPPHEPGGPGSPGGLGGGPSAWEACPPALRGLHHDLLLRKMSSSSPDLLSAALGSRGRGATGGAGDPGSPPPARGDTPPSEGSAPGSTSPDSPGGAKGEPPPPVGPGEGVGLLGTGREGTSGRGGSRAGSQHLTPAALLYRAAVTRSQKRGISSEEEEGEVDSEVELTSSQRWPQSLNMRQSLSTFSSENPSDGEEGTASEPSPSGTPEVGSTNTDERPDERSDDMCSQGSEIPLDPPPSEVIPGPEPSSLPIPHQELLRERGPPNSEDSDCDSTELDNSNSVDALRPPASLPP
UniProt Q6DT37, sequence (whole entry, looked up): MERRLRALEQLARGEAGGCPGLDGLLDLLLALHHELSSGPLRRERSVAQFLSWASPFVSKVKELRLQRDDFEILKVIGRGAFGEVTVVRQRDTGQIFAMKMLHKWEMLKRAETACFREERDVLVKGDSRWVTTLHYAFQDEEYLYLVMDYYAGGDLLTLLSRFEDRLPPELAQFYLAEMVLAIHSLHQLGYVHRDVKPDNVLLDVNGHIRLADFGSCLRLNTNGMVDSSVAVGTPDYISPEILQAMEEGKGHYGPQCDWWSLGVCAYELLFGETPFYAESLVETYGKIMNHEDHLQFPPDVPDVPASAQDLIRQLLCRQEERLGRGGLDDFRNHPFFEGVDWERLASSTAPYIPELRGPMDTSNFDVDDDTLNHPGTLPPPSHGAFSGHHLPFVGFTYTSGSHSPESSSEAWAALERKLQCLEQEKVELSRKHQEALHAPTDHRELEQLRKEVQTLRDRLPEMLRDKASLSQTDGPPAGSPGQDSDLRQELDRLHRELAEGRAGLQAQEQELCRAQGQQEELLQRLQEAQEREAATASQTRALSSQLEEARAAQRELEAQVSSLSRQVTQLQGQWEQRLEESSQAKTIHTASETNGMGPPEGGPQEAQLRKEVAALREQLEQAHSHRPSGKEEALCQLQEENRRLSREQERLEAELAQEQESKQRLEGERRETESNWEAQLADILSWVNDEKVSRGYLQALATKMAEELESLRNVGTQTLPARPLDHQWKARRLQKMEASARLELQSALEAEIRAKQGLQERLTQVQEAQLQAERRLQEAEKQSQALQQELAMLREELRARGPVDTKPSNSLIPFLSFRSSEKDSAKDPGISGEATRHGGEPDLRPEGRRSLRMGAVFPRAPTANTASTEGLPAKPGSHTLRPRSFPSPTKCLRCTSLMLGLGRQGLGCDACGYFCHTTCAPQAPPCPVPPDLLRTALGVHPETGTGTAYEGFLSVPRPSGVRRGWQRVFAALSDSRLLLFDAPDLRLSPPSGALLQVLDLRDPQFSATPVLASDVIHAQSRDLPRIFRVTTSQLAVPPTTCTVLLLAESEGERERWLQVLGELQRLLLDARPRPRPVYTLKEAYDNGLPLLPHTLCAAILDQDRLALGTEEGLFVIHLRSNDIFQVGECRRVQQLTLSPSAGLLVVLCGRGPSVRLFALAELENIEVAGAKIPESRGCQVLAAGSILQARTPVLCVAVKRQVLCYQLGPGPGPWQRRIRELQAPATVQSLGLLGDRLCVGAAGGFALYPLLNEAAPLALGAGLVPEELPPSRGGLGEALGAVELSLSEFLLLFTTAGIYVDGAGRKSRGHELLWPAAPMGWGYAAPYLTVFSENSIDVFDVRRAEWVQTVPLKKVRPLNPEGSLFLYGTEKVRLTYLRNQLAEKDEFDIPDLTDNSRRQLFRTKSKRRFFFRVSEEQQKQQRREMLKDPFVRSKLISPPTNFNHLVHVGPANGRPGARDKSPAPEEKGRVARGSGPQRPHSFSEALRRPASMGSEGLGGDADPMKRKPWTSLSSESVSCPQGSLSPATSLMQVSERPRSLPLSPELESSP
UniProt P37023, sequence (whole entry, looked up): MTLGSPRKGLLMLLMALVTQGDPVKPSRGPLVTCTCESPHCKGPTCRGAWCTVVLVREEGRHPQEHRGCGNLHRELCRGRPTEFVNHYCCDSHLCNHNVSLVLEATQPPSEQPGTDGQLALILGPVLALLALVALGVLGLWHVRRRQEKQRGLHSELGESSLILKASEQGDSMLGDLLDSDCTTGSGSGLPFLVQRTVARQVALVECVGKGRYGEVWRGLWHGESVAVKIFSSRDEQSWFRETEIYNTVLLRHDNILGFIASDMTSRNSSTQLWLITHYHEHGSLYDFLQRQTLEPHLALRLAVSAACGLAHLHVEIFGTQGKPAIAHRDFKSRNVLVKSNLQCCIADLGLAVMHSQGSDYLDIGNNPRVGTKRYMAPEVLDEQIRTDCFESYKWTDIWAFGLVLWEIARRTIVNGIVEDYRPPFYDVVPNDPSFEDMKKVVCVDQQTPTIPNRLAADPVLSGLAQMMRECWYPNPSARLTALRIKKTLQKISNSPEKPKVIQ
UniProt P41743, sequence (whole entry, looked up): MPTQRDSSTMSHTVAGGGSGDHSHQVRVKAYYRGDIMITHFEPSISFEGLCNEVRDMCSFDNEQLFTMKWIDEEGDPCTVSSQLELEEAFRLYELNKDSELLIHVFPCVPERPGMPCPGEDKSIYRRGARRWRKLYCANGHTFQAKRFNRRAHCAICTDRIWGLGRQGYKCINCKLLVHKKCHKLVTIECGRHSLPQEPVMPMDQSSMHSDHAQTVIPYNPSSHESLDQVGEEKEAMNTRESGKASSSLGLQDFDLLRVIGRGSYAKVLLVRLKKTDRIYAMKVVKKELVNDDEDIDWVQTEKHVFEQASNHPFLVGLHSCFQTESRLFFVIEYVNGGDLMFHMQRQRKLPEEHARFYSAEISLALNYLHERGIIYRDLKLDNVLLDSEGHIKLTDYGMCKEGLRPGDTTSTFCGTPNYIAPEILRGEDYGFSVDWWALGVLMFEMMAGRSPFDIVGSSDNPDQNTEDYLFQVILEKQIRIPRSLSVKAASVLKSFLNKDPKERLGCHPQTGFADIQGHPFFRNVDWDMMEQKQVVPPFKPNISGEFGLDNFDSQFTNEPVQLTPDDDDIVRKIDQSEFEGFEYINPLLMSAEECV

Set 1
Compound: Nc1cnc(N2CCc3cc(S(=O)(=O)Nc4c(F)cc(Cl)cc4F)cc(N4CCCC4=O)c32)nc1
Tested at: 1 µM
| target | observed | technique | remaining binding [%] |
| --- | --- | --- | --- |
| CDC42BPG (Homo sapiens, UniProt Q6DT37) | – | competition binding | 100 |
| RIOK1 (Homo sapiens, UniProt Q9BRS2) | cell-free assay | competition with immobilised ligand | 100 |
| ACVRL1 (Homo sapiens, UniProt P37023) | cell-free assay | competition with immobilised ligand | 86 |
| CSNK1G3 (Homo sapiens, UniProt Q9Y6M4) | cell-free assay | competition with immobilised ligand | 78 |
| MAP3K12 (Homo sapiens, UniProt Q12852) | cell-free assay | competition with immobilised ligand | 100 |
| PRKCI (Homo sapiens, UniProt P41743) | cell-free assay | competition with immobilised ligand | 100 |

Set 2
Cell line: A-375
Tested at: 100 µM
Time: 36 h
| Compound | viability |
| --- | --- |
| O=C1CCc2cc(OCCCCc3nnnn3C3CCCCC3)ccc2N1 | 75.8% |
| O=c1c(O[C@@H]2O[C@H](CO)[C@H](O)[C@H](O)[C@H]2O)c(-c2ccc(O)c(O)c2)oc2cc(O)cc(O)c12 | 108% |
| CCCCNC(=O)NS(=O)(=O)c1ccc(C)cc1 | 91.6% |
| OCc1ccccc1O[C@@H]1O[C@H](CO)[C@@H](O)[C@H](O)[C@H]1O | 123% |
| CCOc1ccc(NC(C)=O)cc1 | 109% |
| C[C@H](CS)C(=O)N1CCC[C@H]1C(=O)O | 92.6% |

Set 3
Cell line: 451Lu
| Compound | IC50 [µM] |
| --- | --- |
| Fc1ccc([C@@H]2CCNC[C@H]2COc2ccc3c(c2)OCO3)cc1 | 24.3 |
| CN(C)CCC=C1c2ccccc2CCc2ccccc21 | 70.9 |
| CN(C)CCCN1c2ccccc2Sc2ccc(Cl)cc21 | 23.2 |
| CN(C)CCCN1c2ccccc2CCc2ccccc21 | 79 |
| O=C1NCCN1CCN1CCC(c2cn(-c3ccc(F)cc3)c3ccc(Cl)cc23)CC1 | 5.9 |

Set 4
Target: Aurora kinase A (AURKA, Homo sapiens, UniProt O14965)
UniProt O14965, sequence (whole entry, looked up): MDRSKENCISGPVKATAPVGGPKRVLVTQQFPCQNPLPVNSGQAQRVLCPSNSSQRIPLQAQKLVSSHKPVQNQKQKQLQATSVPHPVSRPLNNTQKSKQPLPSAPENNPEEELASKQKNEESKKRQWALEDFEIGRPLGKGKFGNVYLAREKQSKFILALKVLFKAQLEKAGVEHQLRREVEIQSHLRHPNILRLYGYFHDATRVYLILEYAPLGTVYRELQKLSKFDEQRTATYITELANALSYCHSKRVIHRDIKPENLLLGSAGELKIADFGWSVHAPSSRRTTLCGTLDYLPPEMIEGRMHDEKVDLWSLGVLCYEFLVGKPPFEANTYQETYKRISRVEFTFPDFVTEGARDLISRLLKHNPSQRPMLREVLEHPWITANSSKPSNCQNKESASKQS
Observed: enzyme activity
Mode: inhibitor
Tested at: 0.5 µM
Relative to: control
| SMILES | remaining activity [%] |
| --- | --- |
| Nc1[nH]nc2nc3ccccc3nc12 | 111 |
| O=C(CCCc1ccc(-c2ccccc2F)cc1)Nc1ccc(O)cc1 | 104 |
| N#CC(C#N)=C(N)/C(C#N)=C/c1ccc(O)cc1 | 89.6 |
| Cc1nc(-c2ccccc2)c(-c2ccncc2)o1 | 91.2 |
| Cn1c2ccccc2c2c3c(c4c5ccccc5n(CCC#N)c4c21)CNC3=O | 56.8 |
| O=C1NC(=O)C(c2cn(CCCn3ccnc3)c3ccccc23)=C1Nc1ccccc1 | 78.8 |
| C#Cc1cccc(Nc2ncnc3cc(OCCOC)c(OCCOC)cc23)c1 | 75.3 |
| CCOC(=O)c1c(C)[nH]c(/C=C2\C(=O)Nc3ccccc32)c1C | 90.4 |
| O=c1c2ccccc2[nH]c(=S)n1CCN1CCC(=C(c2ccc(F)cc2)c2ccc(F)cc2)CC1 | 100 |
| O=C(Nc1cccc(Nc2cc(Nc3cccc(C(F)(F)F)c3)ncn2)c1)C1CC1 | 107 |
| CO[C@H]1C[C@@H]2CC[C@@H](C)[C@@](O)(O2)C(=O)C(=O)N2CCCC[C@H]2C(=O)O[C@H]([C@H](C)C[C@@H]2CC[C@@H](O)[C@H](OC)C2)CC(=O)[C@H](C)/C=C(\C)[C@@H](O)[C@@H](OC)C(=O)[C@H](C)C[C@H](C)/C=C/C=C/C=C/1C | 81.5 |
| Cn1sc(=O)n(Cc2ccccc2)c1=O | 104 |
| OCC(O)CCON=C1C(c2c(O)[nH]c3ccccc23)=Nc2ccccc21 (stereo not drawn) | 9.78 |
| Oc1ccc(-c2nc(-c3ccncc3)c(-c3ccc(F)cc3)[nH]2)cc1 | 96.1 |
| COc1cc2ncnc(Nc3ccc(Oc4ccccc4)cc3)c2cc1OC | 79.2 |
| COc1cc2ncnc(Nc3ccc(F)c(Cl)c3)c2cc1OCCCN1CCOCC1 | 95.3 |

Excerpt of the above (set 1):
| target | observed | technique | remaining binding [%] |
| --- | --- | --- | --- |
| MAP3K12 (Homo sapiens, UniProt Q12852) | cell-free assay | competition with immobilised ligand | 100 |
| ACVRL1 (Homo sapiens, UniProt P37023) | cell-free assay | competition with immobilised ligand | 86 |
| PRKCI (Homo sapiens, UniProt P41743) | cell-free assay | competition with immobilised ligand | 100 |
| CSNK1G3 (Homo sapiens, UniProt Q9Y6M4) | cell-free assay | competition with immobilised ligand | 78 |
